Results of several laboratories.
A part holds a random share of what one study measured.

Block 1 — technique: aptamer microarray, sandwich; molecule type: DNA with 2'F-ANA; sample: in vitro; concentration: 200 nM; with: Cy3 exosite-II aptamer, 400 nM; direction: higher = stronger binding; endpoint: mean fluorescence intensity; oligonucleotide: GGTTGGTGTGGTTGG
Target: Prothrombin, mature alpha-thrombin (F2, Homo sapiens, UniProt P00734)
Notes: whole 15-mer aptamer, many near background
2'F-ANA at 9 13 14: 200 a.u.
2'F-ANA at 2 3 6 7 9 11 12 14: 360 a.u.
2'F-ANA at 2 3 5 10 11 13 14: 50.8 a.u.
2'F-ANA at 1 3 4 5 6 7 8 9: 66.7 a.u.
2'F-ANA at 1 4 8 9 10 12 13 15: 53.6 a.u.
2'F-ANA at 4 5 8 9 10 11 13 14: 43.5 a.u.
2'F-ANA at 1 2 3 4 5 9 13 15: 51.1 a.u.
2'F-ANA at 1 2 4 5 6 8 10 12 13 14: 53.7 a.u.
2'F-ANA at 1 4 7 8 10 12 13 15: 58.2 a.u.
2'F-ANA at 1 2 5 6 9 10 11 12 15: 51.9 a.u.

Block 2 — technique: protein-binding microarray; molecule type: double-stranded DNA, one strand shown; sample: in vitro; concentration: 250 nM; notes: 60-bp whole probe; with: salmon DNA 0.4 mg/ml; reference: random background probes; direction: higher = stronger binding; endpoint: log fluorescence; shared flanks, not repeated: GCCTAGCAC … GTCTTGATTCGCTTGACGCTGCTG
Target: Interferon regulatory factor 7, full length, phosphomimetic (IRF7, Homo sapiens, UniProt Q92985, residues 1-503, S101K/S471D/S472D/S475D/S476D/S477D/S483D/S484D/S487D)
Chain of UniProt Q92985 (whole entry, unmodified, looked up): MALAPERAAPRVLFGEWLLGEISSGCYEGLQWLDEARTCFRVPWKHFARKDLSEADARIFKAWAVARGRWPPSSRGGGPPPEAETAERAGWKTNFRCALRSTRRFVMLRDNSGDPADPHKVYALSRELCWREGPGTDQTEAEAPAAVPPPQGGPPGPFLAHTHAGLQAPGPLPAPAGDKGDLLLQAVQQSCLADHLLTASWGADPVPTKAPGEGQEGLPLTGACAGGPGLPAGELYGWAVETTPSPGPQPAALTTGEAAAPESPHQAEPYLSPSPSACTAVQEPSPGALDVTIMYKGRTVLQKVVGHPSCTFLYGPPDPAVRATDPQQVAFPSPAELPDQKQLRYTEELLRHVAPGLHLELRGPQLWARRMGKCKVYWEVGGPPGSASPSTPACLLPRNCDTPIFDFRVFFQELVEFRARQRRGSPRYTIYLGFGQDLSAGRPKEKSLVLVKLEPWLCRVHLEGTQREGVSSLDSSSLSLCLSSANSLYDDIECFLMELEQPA
GACGGTGTCGACACTGGGGACGTGCTA: -0.756 z-score
TTAGGACTGGGCTTTCGGTTAGTGCTA: 0.07 z-score
TTTGGTTTCGACTATCGGTTAGTGCTA: 7.22 z-score
TCATGTTTCTCAAATGTTACTGTGCTA: 1.3 z-score
GACGGTTTCGGTTCCGTGACGTGCTAG: 12.5 z-score
CGGCTACCGCGGCTCCTACAGTGCTAG: -0.469 z-score
GACGGTCTCGGATTGGGGACGTGCTAG: 2.47 z-score

Block 3 — technique: RNA Bind-n-Seq; molecule type: RNA; sample: in vitro; concentration: 1 µM; notes: whole 134-nt RNA, ends assumed; with: 150 mM KCl; reference: input library; direction: higher = stronger binding; endpoint: log2 enrichment
Target: Ras GTPase-activating protein-binding protein 1, RRM domain (G3BP1, Homo sapiens, UniProt Q13283)
Chain of UniProt Q13283 (whole entry, looked up): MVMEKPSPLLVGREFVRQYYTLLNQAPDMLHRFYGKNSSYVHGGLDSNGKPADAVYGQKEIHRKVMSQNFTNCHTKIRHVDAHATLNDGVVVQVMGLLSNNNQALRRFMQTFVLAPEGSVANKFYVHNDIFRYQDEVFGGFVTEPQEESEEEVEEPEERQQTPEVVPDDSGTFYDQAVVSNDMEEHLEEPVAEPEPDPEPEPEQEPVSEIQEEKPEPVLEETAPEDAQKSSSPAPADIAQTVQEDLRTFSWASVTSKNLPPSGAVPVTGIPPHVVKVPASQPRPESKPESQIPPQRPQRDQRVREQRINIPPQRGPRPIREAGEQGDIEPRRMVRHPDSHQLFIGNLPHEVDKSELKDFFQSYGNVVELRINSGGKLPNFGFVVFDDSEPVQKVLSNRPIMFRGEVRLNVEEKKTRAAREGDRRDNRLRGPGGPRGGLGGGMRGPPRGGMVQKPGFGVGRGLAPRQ
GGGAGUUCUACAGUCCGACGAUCGUCCUGUGCUACACAUCGUAUGUACCGAAUCGGGUUUUUGGGGUUUUUGGUUUUUGGGGAAAGUAUUAUGUUACGCCGUUCGGAUCUGCAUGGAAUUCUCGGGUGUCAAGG: -0.114
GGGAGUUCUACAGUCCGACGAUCCUGUGCUACACAUCGUAUGUACCGAAUCGGGUUUUUUUGGGGUUUUUUUGGUUUUUUUGGGAAAGUAUUAUGUUACGCCGUUCGGAUCUGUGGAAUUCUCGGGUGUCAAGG: -0.176
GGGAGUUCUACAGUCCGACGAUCGUCCUGUGCUACACAUCGUAUGUACCGAAUCGGGGUUUUUUUGGGGAGGGGAAAGGGGAAAGUAUUAUGUUACGCCGUUCGGAUCUGCACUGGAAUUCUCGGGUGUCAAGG: 1.14
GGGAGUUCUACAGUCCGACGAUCUGGCCCUGGUGGCAUGCGGGGAGGAAGAGGUGGCCUCAUGGAUCGCGGUGGUCCCGGUGGAAUGUUCAGAGGUGGCCGUGGUGGAGACAGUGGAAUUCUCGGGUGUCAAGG: 1.11
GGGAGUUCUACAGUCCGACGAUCGUCCUGUGCUACACAUCGUAUGUACCGAAUCGGUUUUUUGGUUUUUUGGGUUUUUUGGAAAGUAUUAUGUUACGCCGUUCGGAUCUGCACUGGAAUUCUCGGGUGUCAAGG: -0.233
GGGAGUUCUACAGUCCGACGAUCCCUGUGCUACACAUCGUAUGUACCGAAUCGGGCCCCCCCGGCCCCCCCGGCCCCCCCGGGAAAGUAUUAUGUUACGCCGUUCGGAUCUGCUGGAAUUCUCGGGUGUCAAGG: -0.9
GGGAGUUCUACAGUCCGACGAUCUCAAGUCCUGUGCUACACAUCGUAUGUACCGAAUCGGAAAGGUUUUUGGAAAGGAAAGUAUUAUGUUACGCCGUUCGGAUCUGCACUUCCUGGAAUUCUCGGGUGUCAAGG: -0.283

Other studies, line by line
PhoQ, residues 284 288 289 292 302 303 SLGVVW
fold induction (PhoP, residues 12 14 15 18 19 SYFRT (Escherichia coli, UniProt P23836); Sort-seq, refers to: YFP reporter; E. coli; PhoQ-PhoP variant library, with: 10 µM Mg2+; reference: high Mg2+ state, higher = stronger signaling): 7.27
